Results of several laboratories.
Each numbered part is a random draw from the data of one study; scales do not carry over between parts.
UniProt Q9H832, sequence (whole entry, looked up): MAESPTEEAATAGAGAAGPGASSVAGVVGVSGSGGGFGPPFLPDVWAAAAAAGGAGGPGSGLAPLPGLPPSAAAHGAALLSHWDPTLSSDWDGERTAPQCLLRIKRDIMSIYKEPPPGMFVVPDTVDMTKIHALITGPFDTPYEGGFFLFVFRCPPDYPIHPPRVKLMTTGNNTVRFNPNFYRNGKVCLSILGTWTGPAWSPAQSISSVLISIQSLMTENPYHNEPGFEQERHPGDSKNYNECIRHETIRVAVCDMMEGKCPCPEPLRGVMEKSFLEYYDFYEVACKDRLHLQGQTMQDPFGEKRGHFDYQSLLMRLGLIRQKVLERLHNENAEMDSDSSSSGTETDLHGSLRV
UniProt P61081, sequence (whole entry, looked up): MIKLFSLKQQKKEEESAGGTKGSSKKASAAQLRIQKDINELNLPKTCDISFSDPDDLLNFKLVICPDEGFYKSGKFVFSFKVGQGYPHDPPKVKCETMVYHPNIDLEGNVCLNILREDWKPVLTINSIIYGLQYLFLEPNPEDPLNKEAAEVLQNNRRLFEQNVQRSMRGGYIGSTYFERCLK
UniProt P62253, sequence (whole entry, looked up): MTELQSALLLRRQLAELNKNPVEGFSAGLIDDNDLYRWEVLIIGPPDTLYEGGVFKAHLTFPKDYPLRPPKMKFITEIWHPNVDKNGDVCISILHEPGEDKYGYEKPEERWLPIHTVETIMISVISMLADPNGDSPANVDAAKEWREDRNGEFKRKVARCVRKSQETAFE
UniProt P62837, sequence (whole entry, looked up): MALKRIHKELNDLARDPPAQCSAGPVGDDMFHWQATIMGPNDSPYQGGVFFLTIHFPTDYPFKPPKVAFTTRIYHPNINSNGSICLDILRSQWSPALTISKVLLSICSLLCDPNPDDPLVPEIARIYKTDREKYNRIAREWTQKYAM
UniProt Q712K3, sequence (whole entry, looked up): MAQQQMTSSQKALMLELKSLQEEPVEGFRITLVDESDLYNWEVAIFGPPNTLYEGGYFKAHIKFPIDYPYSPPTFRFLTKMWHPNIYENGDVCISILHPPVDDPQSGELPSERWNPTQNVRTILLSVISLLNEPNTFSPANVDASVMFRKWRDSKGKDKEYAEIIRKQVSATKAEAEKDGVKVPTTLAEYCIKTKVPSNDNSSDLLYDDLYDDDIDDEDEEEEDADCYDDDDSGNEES
UniProt P63146, sequence (whole entry, looked up): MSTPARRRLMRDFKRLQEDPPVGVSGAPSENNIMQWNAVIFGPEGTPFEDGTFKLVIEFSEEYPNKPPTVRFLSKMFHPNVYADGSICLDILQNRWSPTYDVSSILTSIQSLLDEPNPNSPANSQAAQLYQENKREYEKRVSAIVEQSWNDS
UniProt Q9NPD8, sequence (whole entry, looked up): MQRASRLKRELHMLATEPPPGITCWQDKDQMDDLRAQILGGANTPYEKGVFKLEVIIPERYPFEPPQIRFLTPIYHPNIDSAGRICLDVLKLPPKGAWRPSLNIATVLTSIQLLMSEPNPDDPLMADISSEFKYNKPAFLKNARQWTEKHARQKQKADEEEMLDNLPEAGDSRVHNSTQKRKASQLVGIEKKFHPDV
UniProt Q9Y385, sequence (whole entry, looked up): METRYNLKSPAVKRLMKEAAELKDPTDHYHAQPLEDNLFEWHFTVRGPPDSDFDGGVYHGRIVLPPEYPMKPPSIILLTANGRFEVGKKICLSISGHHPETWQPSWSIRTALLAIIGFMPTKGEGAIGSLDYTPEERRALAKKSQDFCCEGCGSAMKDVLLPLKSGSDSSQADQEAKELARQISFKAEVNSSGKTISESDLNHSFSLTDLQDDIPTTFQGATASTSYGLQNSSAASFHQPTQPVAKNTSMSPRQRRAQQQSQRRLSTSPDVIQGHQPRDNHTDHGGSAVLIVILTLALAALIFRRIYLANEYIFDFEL

Set 1
Target: Sal-like protein 4, full length isoform B (SALL4, Homo sapiens, UniProt Q9UJQ4-2, residues 1-616)
Method: universal PBM
Molecule type: double-stranded DNA, one strand shown
Matrix: in vitro
Concentration: not given
Setting: 8-mer, flanks averaged, mean of replicates
Reading: higher = stronger binding
Quantity: E-score
TAGAAGGA: -0.0726
CTACACCA: 0.157
CCACTCCC: -0.188
CGAGCTAC: -0.0813
AATCTATC: 0.194
CAATGGGG: -0.163
AACTTACG: 0.111
CCCAAATC: 0.0179
AACCAACA: 0.118
CACGCAGC: -0.327
ACCGTCTG: -0.265
GTACTTGA: 0.0589
GAACCTAA: -0.0707
CAGGGGGG: -0.39
GCGTCAAA: -0.0319
CAAAGCGC: -0.104
GACCTAGA: -0.088
GTAGTGGA: 0.00058
CATTCCCC: -0.18
CTCTACTA: 0.0768
TACTGCTA: -0.00496
CTGGGCCA: -0.222
GTCGATGA: -0.0639
ACAGCCGT: -0.186
ACCGGCTG: -0.406

Set 2
Target: RNA binding protein fox-1 homolog 2, RRM domain, GST-SBP tag (RBFOX2, Homo sapiens, UniProt O43251-10, residues 100-194)
Method: RNA Bind-n-Seq
Molecule type: RNA
Matrix: in vitro
Concentration: 365 nM
Setting: natural RNA segment, single round, ends assumed
Baseline: no-protein control
Reading: higher = stronger binding
Quantity: RBNS enrichment (R)
Shared flanks, not repeated: GGGAGUUCUACAGUCCGACGAUC … UGGAAUUCUCGGGUGCCAA
Residues (chain): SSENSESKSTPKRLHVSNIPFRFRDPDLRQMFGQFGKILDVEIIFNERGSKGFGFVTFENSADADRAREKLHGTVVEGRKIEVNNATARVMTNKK
UUGAUGAAAAGCCUAGAAAUUAGUUCCUCUUAAAGUGCAAUAUUACUUAACCUCAGAAUCGGGCCAGUUCUGUAGAUCCUCAAGAGAAGCUUCAGUGACUGUCCCUUUGA: 0.565
AUGUAUUUUUUCAUUCUAUAAGUUCUGUUCUAGAGAAUCCCAAGUAAUACAGAUUUUCAUAUCAGAGGUGGUUCUAGAGCAAUAGAAGUAUUAAGGUGAAUUUUUUUUAA: 0.98
AGUUGUAUUUUUAUCUAAUGCCAUUUUAGAAUUUUCUAAGGGAAUUUAAUGAAUUCACAUGAAAGGGGUAGUCUGAGUGACACAGUUCCCCACUCCGUACUGUAUUUUGC: 0.636
CCAUGAAUCGUAUUGGUGAUUUUGCUAUAUUGACAGAUUCUCAUCUGUUACACUCUAGGAUCUCUCACAGGUCUGUGGCAAUUACUGUUCAUGAUUUCCUGAAAAAAUAU: 0.34
UAAACUCAUGAAUUAUAGGCAUUUUUAAUUUUUUGUAGACUAUGAACCCUGGCUGAUAUUGAAGUCAUCAUUGUUGGAUGGUUUAUUCUGUUUUGUUGUUAAUGCUCAGA: 1.21
AGAGCCCCUGCAACUGUUAUCCACAUACAACAGGGAUAUCGGACUGCUUUCUUCUUCCGGCUGGUACAGAAUCUGUGUCCAUCAUUUUUCACUACAGGUCUUGUUAAAAU: 0.532
CCUGUCUGGCCGGGCCGCACUUGUGGCCCCCGGGACCCCACCUCUGGCCCCACCUCCCUCAAGUCUGCGCCCCGUCCCCAGCCAGACCCACUCGCUGCCGGGACCCUUUC: 0.377
UAAGUUUUAAAUAAAGUCAUGAUCAGUGUGCAUUUGUGAUUACAUGUGUACUCAUUCUUUUCCCAAGCUGACGAGGUCUCUCCCGAGUGGCGCUUCGAAAGGCGUGCAUG: 3.67

Set 3
Target: Phosphate system positive regulatory protein PHO4, full length, GST-tagged (PHO4, Saccharomyces cerevisiae, UniProt P07270, residues 1-312)
Method: competition protein-binding microarray
Molecule type: double-stranded DNA, one strand shown
Matrix: in vitro
Concentration: 2 µM
Setting: whole 60-bp probe, lowest competitor level
Added: Cbf1 competitor, 0.05 µM
Reading: higher = stronger binding
Quantity: fluorescence intensity
Shared flanks, not repeated: … GTCTTGATTCGCTTGACGCTGCTG
Target sequence (chain): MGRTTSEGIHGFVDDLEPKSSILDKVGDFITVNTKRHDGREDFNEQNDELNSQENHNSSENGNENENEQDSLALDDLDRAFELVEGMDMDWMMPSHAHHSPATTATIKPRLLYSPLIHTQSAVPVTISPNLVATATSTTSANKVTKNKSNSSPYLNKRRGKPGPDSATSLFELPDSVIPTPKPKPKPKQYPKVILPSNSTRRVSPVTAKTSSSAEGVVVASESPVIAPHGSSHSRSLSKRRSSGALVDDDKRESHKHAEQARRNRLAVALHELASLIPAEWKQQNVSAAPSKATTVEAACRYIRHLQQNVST
GTCTTGTCTCATTGTAAGGTGGGTGTCCCCACTTCA: 4790 a.u.
CCATGCTGTTTCCATCACGTGCAAATAACCTTTTTG: 16500 a.u.
GTCTTGTCTCATTGTTAGGTGGGTGTCCCCACTTCA: 4590 a.u.
TCTCCTAGGGGCAGTCTCGTGCTAATTAGCAGCTTT: 6670 a.u.
CGGGGTTAAGTTTGTCGCGTGGGTGGCTTGCAGCAG: 9200 a.u.
GTCTTGTCTCATTGTCACCAGACTTTCCCCACTTCA: 4290 a.u.
GCTTATATCAACCGTCACGGGACTCTATCCAAGACT: 5410 a.u.
GTCGTCGTCGTACTCATCTAATAGTTCAATGTCTAA: 3000 a.u.
CACTGTTGGCACCTCCACGTGTTGAATTACCAGGGC: 15900 a.u.
CTGTTTTTCACCTTCCACGTGGATTTTTTCGCGTTT: 15700 a.u.
CGTCCTAGTGATTCACACGTGTTTTCCATGAGGAAG: 17700 a.u.
TAAACTCACCTAATTCGCATGACAAGGTCCCTGAAA: 4770 a.u.
GGCAAATACTGCCGACACGTTGCCAAATCGCTGACC: 12200 a.u.
GCGTCTGCTCCCCATCACGATACCCGAGGTGCAGGC: 5340 a.u.
CTTCTGTAAATTTGCACTGTGGGTGGACGCGCCCCG: 5300 a.u.
AATGAGTTCACTCACCACGTTAGAGTCTCCCAATAT: 6140 a.u.

Set 4
Target: Histone acetyltransferase KAT6A, both winged helices, GST fusion (KAT6A, Homo sapiens, UniProt Q92794, residues 1-181)
Method: protein binding microarray
Molecule type: double-stranded DNA, one strand shown
Matrix: in vitro
Concentration: not given
Setting: 8-mer, flanks averaged, mean of 2 arrays, mostly near background
Baseline: not given
Reading: higher = stronger binding
Quantity: E-score
Construct (chain): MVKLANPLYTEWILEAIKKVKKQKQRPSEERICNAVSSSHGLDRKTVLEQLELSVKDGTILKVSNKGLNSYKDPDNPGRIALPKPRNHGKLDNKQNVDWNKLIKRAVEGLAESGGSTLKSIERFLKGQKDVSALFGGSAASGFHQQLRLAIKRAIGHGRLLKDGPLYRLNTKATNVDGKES
AGCTAACT: -0.218
CGTTGTGC: 0.123
TATTTAGA: -0.0121
ATTGTGGA: -0.36
AATCACGC: 0.0821
GATGAGAC: -0.0262
ACGAAGTG: -0.0288
ACCCCTGA: -0.183
AGGGGTTC: -0.258
ACCCGACC: 0.0762
GCATCATA: -0.0682
TGGACTAA: -0.114
CCAACGGG: 0.0949
CAGCTAAA: -0.067
GCATGCCA: -0.0955
AAACCGAC: 0.118
AACTCATG: -0.0283
CGGCAAAC: 0.273
GCAGGGTA: -0.253
ACTGGGCC: -0.0768
CTGTAGAC: 0.0458
ACCTACAC: -0.248
CAATTCAA: -0.113
GGTACACC: 0.139
AGACGCAG: -0.0348

Set 5
Molecule: B1 (RNF181 RING domain)
Method: yeast two-hybrid
Matrix: yeast
Setting: mostly zero background
Baseline: not given
Reading: higher = stronger interaction
Quantity: lacZ reporter activity
B1: RNF181 RING domain (UniProt Q9P0P0); chain VIRGSQAELKCPVCLLEFEEEETAIEMPCHHLFHSSCILPWLSKTNSCPLCRYELPTDDDTY
UBE2G1 UBC core domain (UniProt P62253): 0
UBE2R2 UBC core domain (UniProt Q712K3): 0
UBE2D2 UBC core domain (UniProt P62837): 9870
UBE2B UBC core domain (UniProt P63146): 0
UBE2T UBC core domain (UniProt Q9NPD8): 0
UBE2M UBC core domain (UniProt P61081): 0
UBE2J1 UBC core domain (UniProt Q9Y385): 0
UBE2Z UBC core domain (UniProt Q9H832): 0

Repeated from above (set 1):
CTACACCA: 0.157
GAACCTAA: -0.0707
ACAGCCGT: -0.186
AATCTATC: 0.194
GTAGTGGA: 0.00058
AACTTACG: 0.111
GCGTCAAA: -0.0319
GTCGATGA: -0.0639
CTGGGCCA: -0.222
CGAGCTAC: -0.0813
GTACTTGA: 0.0589
CCCAAATC: 0.0179
AACCAACA: 0.118
TAGAAGGA: -0.0726
